Measured values of several laboratories.
Compare with care: the assays were run in different laboratories. pEC50: −log10 of the molar value.
Cell line: PC-3

SMILES = [BH3-][P+]1(c2ccccc2)CCC(=O)CC1; assay = MTT; conditions = 72 h; scale = baseline: IC50 HaCaT over IC50 PC-3; quantity = selectivity index; result = 1
SMILES = CCN(C(=O)c1cc(F)ccc1Oc1nncnc1N1CCC2(C1)CN([C@H](CCCN(C)CCOC)C(C)C)C2)C(C)C; assay = cell growth or viability; conditions = 72 h; quantity = GI50; result = > 10 µM
SMILES = CCS(=O)(=O)Oc1cc(/C=N/NC(=O)c2nc3ccccc3s2)ccc1OC; assay = cell growth or viability, MTT; conditions = 100 µM, 48 h; quantity = cell death; result = 32%
SMILES = COc1cc(/C=C/C(=O)/C=C(O)/C=C/c2ccc(OCC(=O)N3CCOCCOCCOCCOCC3)c(OC)c2)ccc1OCC(=O)N1CCOCCOCCOCCOCC1; assay = cell growth or viability, SRB; conditions = 25 µM; quantity = inhibition; result = 90%
SMILES = O=C(Nc1nnc2c1c(-c1ccc(Cl)cc1)nc1sc(=Cc3ccco3)c(=O)n12)c1ccccc1 (mixture of isomers); assay = SRB; conditions = 10 µM, NCI60 single-dose screen, prostate cancer; scale = baseline: untreated; quantity = cell growth; result = 64.5%
SMILES = C=C(NC(=O)c1csc(-c2cccnc2)n1)C(=O)NC(=C)C(=O)OC; assay = cell growth or viability; quantity = pEC50; result = 4.58
SMILES = O=C(CCl)c1ccccc1Nc1cccc(C(F)(F)F)c1; assay = cell growth or viability, SRB; conditions = 48 h; quantity = GI50; result = 11.7 µM
SMILES = [BH3-][P+]1(c2ccccc2)CCCCC1; assay = Annexin V-FITC/PI flow cytometry; conditions = IC50, 72 h; quantity = late apoptotic cells; result = 1.95%
SMILES = CCc1c(C)c2ccc(OC(C)C)c(C)c2oc1=O; assay = cell growth or viability, MTT; conditions = 1000 µg/mL; quantity = viability; result = 2.24%
SMILES = Nc1cc2cccnc2c2ncccc12.[Cl-].[Cl-].[Ru+2].c1cnc2c(c1)ccc1cccnc12.c1cnc2c(c1)ccc1cccnc12; assay = MTT; conditions = blue light; scale = baseline: IC50 HFF-1 over IC50 PC-3; quantity = selectivity index; result = 0.7
SMILES = COc1cc(/C=C/C(=O)/C=C(O)/C=C/c2ccc(OCC(=O)N3CCOCCOCCOCCOCCOCC3)c(OC)c2)ccc1OCC(=O)N1CCOCCOCCOCCOCCOCC1; assay = cell growth or viability, SRB; conditions = 25 µM; quantity = inhibition; result = 95%
SMILES = CCCCCCC(=O)[O][Pt]([NH2])([NH2])([Cl])([Cl])[O]C(=O)CCC(C)C1CCC2C3CCC4CC(O)CCC4(C)C3CCC12C (stereo not drawn); assay = PI flow cytometry; conditions = 2 µM, 48 h; quantity = cells in S phase; result = 36.2%

Some of these lines once more:
SMILES = CCc1c(C)c2ccc(OC(C)C)c(C)c2oc1=O; assay = cell growth or viability, MTT; conditions = 1000 µg/mL; quantity = viability; result = 2.24%
